Measured values of several laboratories.
Target: Phosphorylase b kinase gamma catalytic chain, skeletal muscle/heart isoform (PHKG1, Homo sapiens, UniProt Q16816)

Structure (SMILES) = Nc1nc(Nc2ccccc2)sc1C(=O)c1ccccc1; test = enzyme activity, inhibitor; conditions = 10 µM; measurement = remaining activity; value = 74%
Structure (SMILES) = C=CC(=O)Nc1cccc(-c2cnc3[nH]cc(C(=O)NC(C)(C)C)c3n2)c1; test = enzyme activity, inhibitor; conditions = 0.1 µM; measurement = inhibition; value = -3%
Structure (SMILES) = CNC1C[S+]2CC[S+]3CC[S+](C1)[Ru-4]321([N]=C=S)[n]2c3ccc(OC)cc3c3c4c(c5cc(F)c[n+]1c5c32)C(=O)NC4=O (stereo not shown); test = KinomeScan; conditions = 0.1 µM; how to read = relative to: untreated; measurement = remaining binding; value = 56%
Structure (SMILES) = CN1CCN(Cc2ccc(-c3ccc(CO[C@H]4CCC[C@@H]4NC(=O)c4cc(-c5cnn(C)c5)cnc4N)cc3)cc2)CC1; test = enzyme activity, inhibitor; conditions = 0.1 µM; measurement = inhibition; value = 11%
Structure (SMILES) = COc1c(Cl)cccc1Nc1c(-c2ccncc2C#C[C@@]2(C)CCCN2C(=O)/C=C/CN(C)C)[nH]c2c1C(=O)NCC2; test = cell-free assay, competition with immobilised ligand; conditions = 3 µM; measurement = remaining binding; value = 95%
Structure (SMILES) = C=CC(=O)Nc1cc(-c2nn(C3CCN(CCNC(=O)[C@H](C)CCC45CC6CC(CC(C6)C4)C5)CC3)c3ncnc(N)c23)ccc1Oc1ccccc1; test = inhibitor, KiNativ profiling; system = biochemical; conditions = 2 µM; measurement = inhibition; value = 28.7%
Structure (SMILES) = C=CC(=O)N1CCc2ccc(-n3c(=O)ccc4cnc5ccc(-c6cnn(C)c6)cc5c43)cc21; test = KINOMEscan; conditions = 1 µM; how to read = relative to: DMSO control; measurement = remaining binding; value = 100%
Structure (SMILES) = CC(C)=CC1OC(C)(C)C2C=C3C(=O)C(Cl)=CC(O)C3C3C(O)C4OC4C(=O)C132 (stereo not shown); test = cell-free assay, competition with immobilised ligand; conditions = 10 µM; measurement = remaining binding; value = 97%
Structure (SMILES) = CNC(=O)C1CCN(c2cc(C)c(F)cc2NC(=O)c2ccc(-c3cc(O)ccc3C)c(C)c2)CC1; test = binding, competition with immobilised ligand; conditions = 1 µM; measurement = remaining binding; value = 100%
Structure (SMILES) = NC(=O)[C@@H](O)C[C@H]1CCc2sc3ncnc(O[C@H]4CC[C@H](N5CCOCC5)CC4)c3c21; test = enzyme activity, inhibitor; conditions = 10 µM; measurement = inhibition; value = 41%
Structure (SMILES) = COc1cc(Nc2nccc(-c3cnn4nc(OC)ccc34)n2)cc(C(F)(F)F)c1; test = binding, competition with immobilised ligand; conditions = 1 µM; measurement = remaining binding; value = 91%
Structure (SMILES) = Cc1cccc(O[C@H]2CCC[C@@H](C(C)CNCc3ccncc3)C2)c1 (relative stereo); test = enzyme activity, inhibitor; conditions = 10 µM; measurement = inhibition; value = -12%
Structure (SMILES) = Cc1ccc(-c2c(/C=C(\C#N)C(=O)NC(C)C)n(CCCO)c3ncnc(N)c23)cc1; test = cell-free assay, competition with immobilised ligand; conditions = 1 µM; measurement = remaining binding; value = 97%
